Experimental data gathered from unrelated publications.
Numbers after ± are the reported error.
CYP2C19: Cytochrome P450 2C19 (CYP2C19, Homo sapiens, UniProt P33261)
Sequence of UniProt P33261 (whole entry, looked up): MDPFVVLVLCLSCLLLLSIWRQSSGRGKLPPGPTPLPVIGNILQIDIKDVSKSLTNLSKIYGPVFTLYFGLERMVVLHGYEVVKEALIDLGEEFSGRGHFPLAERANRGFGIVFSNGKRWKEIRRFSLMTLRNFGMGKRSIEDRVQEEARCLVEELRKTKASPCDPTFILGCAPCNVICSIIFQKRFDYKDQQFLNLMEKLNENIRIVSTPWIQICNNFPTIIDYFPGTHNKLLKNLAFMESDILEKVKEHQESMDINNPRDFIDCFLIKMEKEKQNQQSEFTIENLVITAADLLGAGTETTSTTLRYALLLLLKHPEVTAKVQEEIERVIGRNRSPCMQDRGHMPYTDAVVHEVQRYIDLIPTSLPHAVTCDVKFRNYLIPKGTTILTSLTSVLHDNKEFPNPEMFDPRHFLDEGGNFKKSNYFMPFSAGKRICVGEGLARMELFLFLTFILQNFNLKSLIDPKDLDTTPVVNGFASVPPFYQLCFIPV

The maximum inhibition of O=C(Nc1cccc(Cl)c1)Nc1ncc(CCNc2ncnc3ccsc23)s1 is reported as 0% (human coronavirus OC43; virus-induced cell killing; MRC-5; maximum over 10 doses).
For Cc1cc(C)nc(Nc2ncc(C(=O)NCCc3c(C)[nH]c4ccccc34)cn2)c1, the fraction metabolised was 0.3% (CYP2C19; recombinant enzyme phenotyping; 1 µM, 30 min).
CC(C)CC(=O)OC[C@H]1O[C@@](C#N)(c2ccc3c(N)ncnn23)[C@H](O)[C@@H]1O has a remaining compound of 83.6 ± 2.58% (CYP2C19; metabolic stability; recombinant enzyme; 1 µM, 30 min).
For CN(C(=O)n1cnc(-c2ccc[n+]([O-])c2)c1)C1CCCCC1, the inhibition was -1% (CYP2C19; enzyme activity, inhibitor; 50 µM, with: 3-cyano-7-ethoxycoumarin substrate).
For O=C1CN2Cc3c(ccc(Cl)c3Cl)N=C2N1, the maximum inhibition was 9.76% (human coronavirus OC43; virus-induced cell killing; MRC-5; screen).
For O=C(Nc1cnccc1Cl)N1CCN(Cc2ccc3c(c2)OC(F)(F)O3)CC1, the inhibition was 58% (CYP2C19; enzyme activity, inhibitor; 50 µM, with: 3-cyano-7-ethoxycoumarin substrate).
For COc1ccc2[nH]c([S+]([O-])Cc3ncc(C)c(OC)c3C)nc2c1 (stereo not shown), the Cmax was 142 ng/mL (CYP2C19; measured: 5-hydroxyomeprazole; human healthy subjects, plasma; oral, 20 mg, alone, fed, geometric mean, with: midazolam 2 mg).
With N#Cc1ccc([C@H]2CCc3cncn32)c(F)c1 the Ki was 2000 nM (CYP2C19; inhibitor, measured: S-mephenytoin 4'-hydroxylation; pooled human liver microsomes; pH 7.4, with: S-mephenytoin 15 µM).
The Cmax of COc1ccc2nc([S+]([O-])Cc3ncc(CO)c(OC)c3C)[nH]c2c1 (stereo not shown) is reported as 112 ng/mL (CYP2C19; human healthy subjects, plasma; oral, 20 mg, alone, fed, geometric mean, with: midazolam 2 mg).
With CS(=O)(=O)Nc1ncn(-c2cc(F)c(COc3ccc(OS(=O)(=O)F)cc3)c(F)c2)n1 the IC50 was over 50000 nM (CYP2C19).

For quick reference, copied from above:
The Cmax of COc1ccc2nc([S+]([O-])Cc3ncc(CO)c(OC)c3C)[nH]c2c1 (stereo not shown) is reported as 112 ng/mL (CYP2C19; human healthy subjects, plasma; oral, 20 mg, alone, fed, geometric mean, with: midazolam 2 mg).
